Measurements collected from several papers.
A part holds a random share of what one study measured. Substitutions count along the parent as printed.

Series 1
Target: RNA binding protein fox-1 homolog 2, RRM domain, GST-SBP tag (RBFOX2, Homo sapiens, UniProt O43251-10, residues 100-194)
Method: RNA Bind-n-Seq
Form: RNA
Medium: in vitro
Tested at: 365 nM
Notes: natural RNA segment, single round, ends assumed
Relative to: no-protein control
Reading: higher = stronger binding
Constant ends, left off below: GGGAGUUCUACAGUCCGACGAUC … UGGAAUUCUCGGGUGCCAA
Construct (chain): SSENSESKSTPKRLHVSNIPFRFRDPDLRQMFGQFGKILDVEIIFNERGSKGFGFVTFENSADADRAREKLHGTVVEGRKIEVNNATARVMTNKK
| Sequence | RBNS enrichment (R) |
| --- | --- |
| GCUGUGACACUCUGGAUGUCUUGGUGUGUGUAGACACACAUUGCAGACUCUUAACGCAGGAAGGACUUCAAACUUCUGCUGAGACCUUGGGGUCAAGGAACAUUUCAUUG | 0.36 |
| AGGUCUCAGCAAUGAAUCGGGAAGACACGAAAGGUCUAAGACUAAAUAUCCAAAUUAUAAAUACUAAGGAAACUUUGUUUCCAGUUUGGCAAUGAUCCAGUCUAAAGUAG | 0.461 |
| AAUCUUAAAGGAAUAAAGCACUGAAUUGGGACUAACAUUCUGAUAGGUUGCACCCUUAAGAGUAUUCAGAGAGCAUCAAAAGGAGCCCACACCUUCAGCAGUGAAGGAUU | 0.217 |
| UUUCUUUAGCUGCUGUGUUUAUUCUCAUUCCUCACACAUGCCUUUAAGUGCAUUGGACUCCAGGAGAGCCAUUUGGGGUUUCUCUAGCUAAACAAUAAAUGUACCUGUCU | 0.486 |
| CAGUCACAUGUUACACUUGAGCAACAAUUGUCUAGGCUAGAAAUAUAGAACCACACAAUAUUUAUCAUCAUUGGGUCAAUUUCUCCCCCUCUAUCAAGUGAGGAGAUUAA | 0.312 |
| AAAUUAUCACACUUGCACAUGAAGAUAAAACAUGAAGUAAUUGUGCUGGUAGCCUUUUGGGAAUUGGUUUGGUUUAUUGUAUAUGUACCAUUUUGCUACCAGUUUCAUUG | 4.99 |
| GUCCCCUCCACUUCCACUGCCAAACAGCUUGGUGAAGAAACAAGAAGGGAACUAUGCCCUGGGCCAGGGCGAAUGCGUGGCUGGGCAGUGCCCAUCAUGGCAUUUUCACA | 3.08 |
| UAAAACUGCAGUAGAAUGAAAUGAGUCAGGGAGCUUCAGUUAGAAAAUAAAGUUGAGGCAGUUUUUGUGAAGAUAAUAUGGUUAGGGCUGGAGUGCACUAGUCUUUUUGC | 2.14 |
| AAACCCCCCUCUAUUAUGUGGGCCUAUGUACAAAUGUGGGUAUCCGCUGGUUUUGUUGUCUACGGGGAGCCCCAGGAUUCAGCUGUGGGUCUCUUUGAGUAUCUGGAAAU | 0.386 |
| AAUAACUUACAAGUGAAAUUAAGAAAACAUAAGAUUUAGUCUUACAGUUUCUAAAUAUAUGAUUUGUUGUUGAGAGAAAACAGUGAUUGUUAAUUAUGGCUUUUACUUCA | 0.418 |
| AAUUUAUGUGUAUUCUUAUUCAAAUUGCUUCUGAGAAGCAAAACUCUUUAAAUACAUUAUGGAAGAUAAUGAAGAUACUUCAUUCUCUUGUGAUAUCAGUGUAUGCGUAC | 0.329 |
| UCAGCUGCUGCUUCUGGGCCACAGGGGGGGCCCCCAGGACCUUGCACUUUAUUCCUGCCCACGUGGCUUUUGGCUGAGACCUGUGUAACCUGCUGUCCCUCACUCACCUG | 2.04 |

Series 2
Molecule: PhoQ, residues 284 288 289 292 302 303 SLANIV
Method: Sort-seq
Measured: YFP reporter
Medium: E. coli
Notes: PhoQ-PhoP variant library
Together with: 10 µM Mg2+
Relative to: high Mg2+ state
Reading: higher = stronger signaling
| target | fold induction |
| --- | --- |
| PhoP, residues 12 14 15 18 19 HHYTI (Escherichia coli, UniProt P23836) | 20.1 |
| PhoP, residues 12 14 15 18 19 SFCSL (Escherichia coli, UniProt P23836) | 18.3 |
| PhoP, residues 12 14 15 18 19 AYFRS (Escherichia coli, UniProt P23836) | 1.47 |

Series 3
Target: CCNF, cyclin fold, Cln2 fusion (human)
Method: yeast growth competition, sequencing
Medium: yeast
Notes: strong parent motif
Relative to: not given
Reading: higher = stronger binding
Starting sequence: ORC1 docking peptide (human); PRARKRLELGNLG
| Substitution | normalised enrichment score |
| --- | --- |
| N11G | 4.53 |
| G13T | 2.77 |
| L9N | 1.04 |
| E8D | 3.73 |
| R2H | 3.67 |
| L12P | 4.1 |
| A3E | 1.85 |
| G10I | 2.59 |
| R4N | 1.45 |
| L12Y | 4.15 |
| L7Y | 0.762 |
| R4P | 0.986 |
| L9Q | 1.24 |
| L12M | 4.15 |
| R2A | 3.3 |
| P1L | 2.74 |
| N11E | 4.15 |
| N11R | 3.19 |
| R4A | 1.63 |
| L12Q | 2.44 |
| N11F | 4.01 |

Series 4
Target: Sal-like protein 4, full length isoform A (SALL4, Homo sapiens, UniProt Q9UJQ4, residues 1-1053)
Sequence of UniProt Q9UJQ4 (whole entry, looked up): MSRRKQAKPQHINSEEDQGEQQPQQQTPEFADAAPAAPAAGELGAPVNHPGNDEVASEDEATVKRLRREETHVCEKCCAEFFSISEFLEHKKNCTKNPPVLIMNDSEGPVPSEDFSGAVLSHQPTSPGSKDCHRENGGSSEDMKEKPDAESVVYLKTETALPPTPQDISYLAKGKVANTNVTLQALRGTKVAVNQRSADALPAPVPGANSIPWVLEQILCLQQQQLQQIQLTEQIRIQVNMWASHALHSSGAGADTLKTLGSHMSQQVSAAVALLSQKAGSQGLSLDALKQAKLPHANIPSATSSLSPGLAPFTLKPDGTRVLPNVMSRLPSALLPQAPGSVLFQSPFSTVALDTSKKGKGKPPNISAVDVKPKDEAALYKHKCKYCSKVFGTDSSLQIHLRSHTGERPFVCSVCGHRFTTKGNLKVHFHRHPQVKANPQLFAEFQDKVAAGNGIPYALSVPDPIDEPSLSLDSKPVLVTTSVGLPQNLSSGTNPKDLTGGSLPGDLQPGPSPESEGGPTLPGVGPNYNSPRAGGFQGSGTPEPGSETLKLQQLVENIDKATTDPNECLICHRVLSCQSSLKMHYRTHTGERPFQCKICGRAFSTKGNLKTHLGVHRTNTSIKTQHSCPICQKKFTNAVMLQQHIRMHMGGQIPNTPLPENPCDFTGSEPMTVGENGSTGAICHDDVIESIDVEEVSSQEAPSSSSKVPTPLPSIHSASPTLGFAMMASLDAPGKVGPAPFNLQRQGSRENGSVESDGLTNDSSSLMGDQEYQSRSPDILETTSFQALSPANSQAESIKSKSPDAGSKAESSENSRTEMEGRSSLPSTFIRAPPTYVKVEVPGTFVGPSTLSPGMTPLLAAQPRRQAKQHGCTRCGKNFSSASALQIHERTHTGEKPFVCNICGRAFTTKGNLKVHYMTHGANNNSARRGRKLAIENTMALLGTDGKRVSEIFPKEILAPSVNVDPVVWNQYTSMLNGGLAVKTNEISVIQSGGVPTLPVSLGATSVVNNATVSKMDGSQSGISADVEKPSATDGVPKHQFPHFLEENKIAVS
Method: universal PBM
Form: double-stranded DNA, one strand shown
Medium: in vitro
Tested at: 600 nM
Notes: 8-mer, flanks averaged, mean of replicates
Reading: higher = stronger binding
| Sequence | E-score |
| --- | --- |
| CGCGTGCA | -0.145 |
| GTGTCTCA | -0.0195 |
| CCTGTTCC | -0.216 |
| CGTCTTGC | -0.0682 |
| CGAATAGA | -0.0873 |
| AAGTTTCT | 0.196 |
| GAGGGCAA | -0.0709 |
| CCCTATGA | 0.0289 |
| CTTGTACA | 0.157 |
| ATTACATG | 0.318 |
| GGCCACTA | -0.264 |
| AGTGTATG | 0.167 |
| CTATTCGA | 0.108 |
| CGCCCTGC | -0.318 |
| AAAGTGGT | 0.0179 |
| CCTGTGGC | -0.266 |
| CAATACTA | 0.113 |
| TCCCCAGA | -0.16 |
| ACGGCAAC | -0.181 |

Excerpt of the above (series 4):
| Sequence | E-score |
| --- | --- |
| CCTGTGGC | -0.266 |
| CCTGTTCC | -0.216 |
| ACGGCAAC | -0.181 |
| CAATACTA | 0.113 |
| TCCCCAGA | -0.16 |
| AAGTTTCT | 0.196 |
| CTTGTACA | 0.157 |
